Measured values from different studies.
Each line is one published result; not all experiments were run side by side. ± gives the spread as reported.
GIPR: Gastric inhibitory polypeptide receptor (GIPR, Homo sapiens, UniProt P48546)
Napepld: N-acyl-phosphatidylethanolamine-hydrolyzing phospholipase D (Napepld, Mus musculus, UniProt Q8BH82)
AGTR1: Type-1 angiotensin II receptor (AGTR1, Homo sapiens, UniProt P30556)
NMUR2: Neuromedin-U receptor 2 (NMUR2, Homo sapiens, UniProt Q9GZQ4)
GLP1R: Glucagon-like peptide 1 receptor (GLP1R, Homo sapiens, UniProt P43220)

With CCCCCCCCCCCCCCCCN(CCCCCCCCCCCCCCCC)CCCCCC(=O)NC(C)(C)C(=O)N[C@@H](Cc1ccccc1)C(=O)N[C@@H](CC(C)C)C(=O)N[C@@H](Cc1ccccc1)C(=O)N[C@@H](CCCNC(=N)N)C(=O)N1CCC[C@H]1C(=O)N[C@@H](CCCNC(=N)N)C(=O)N[C@@H](CC(N)=O)C(N)=O the Emax was 81 ± 3.6% (NMUR1 (Homo sapiens, UniProt Q9HB89); calcium signaling, agonist; HEK293 expressing NMUR1; 30 µM; relative to: human neuromedin U max).
CC[C@H](C)[C@H](NC(=O)[C@H](CO)NC(=O)[C@H](Cc1ccc(O)cc1)NC(=O)[C@H](CC(=O)O)NC(=O)[C@H](CO)NC(=O)[C@@H](NC(=O)[C@H](Cc1ccccc1)NC(=O)[C@@H](NC(=O)CNC(=O)[C@@H]1CCCN1C(=O)[C@H](C)NC(=O)[C@@H](N)Cc1ccc(O)cc1)[C@@H](C)O)[C@@H](C)CC)C(=O)N[C@@H](C)C(=O)N[C@@H](CCSC)C(=O)N[C@@H](CC(=O)O)C(=O)N[C@@H](CCCCN)C(=O)N[C@H](C(=O)N[C@@H](CCCNC(=N)N)C(=O)N[C@@H](CCC(N)=O)C(=O)N[C@@H](CCC(N)=O)C(=O)N[C@@H](CC(=O)O)C(=O)N[C@@H](Cc1ccccc1)C(=O)N[C@H](C(=O)N[C@@H](CC(N)=O)C(=O)N[C@@H](Cc1c[nH]c2ccccc12)C(=O)N[C@@H](CC(C)C)C(=O)N[C@@H](CC(C)C)C(=O)N[C@@H](C)C(=O)N[C@@H](CCC(N)=O)C(=O)N[C@@H](CCCCN)C(=O)NCC(=O)N[C@@H](CCCCN)C(=O)N[C@@H](CCCCN)C(=O)N[C@@H](CC(N)=O)C(=O)N[C@@H](CC(=O)O)C(=O)N[C@@H](Cc1c[nH]c2ccccc12)C(=O)N[C@@H](CCCCN)C(=O)N[C@@H](Cc1c[nH]cn1)C(=O)N[C@@H](CC(N)=O)C(=O)N[C@@H](CC(C)C)C(=O)N[C@H](C(=O)N[C@@H](CCC(N)=O)C(=O)O)[C@@H](C)O)C(C)C)[C@@H](C)CC has an Emax of 73% (GIPR; cAMP, agonist; COS-7).
Cc1cc(F)ccc1S(=O)(=O)N1CCC(C(=O)Nc2nc3c(C)cccc3s2)CC1 has an Emax of < 1.6 fold (Napepld; enzyme activity, activator, fluorescence, PED-A1 substrate; relative to: vehicle).
With CCCCCSC[C@H](NC(=O)[C@H](Cc1ccc(O)cc1)NC(=O)[C@@H](NC(=O)[C@H](CCCNC(=N)N)NC(=O)CNC)C(C)C)C(=O)N[C@@H](Cc1c[nH]cn1)C(=O)N1CCC[C@H]1C(=O)N[C@@H](CC(C)C)C(=O)O the Emax was 80% (AGTR1; β-arrestin recruitment, agonist; CHO).
O=C(Nc1nc2ccccc2s1)C1CCN(S(=O)(=O)c2ccc(F)c(Cl)c2)CC1 gave an Emax of < 1.2 fold (Napepld; enzyme activity, activator, fluorescence, PED-A1 substrate; relative to: vehicle).
With CC(C)C[C@H](NC(=O)[C@H](Cc1ccccc1)NC(=O)CCCCCNC(=O)[C@@H](N)CS)C(=O)N[C@@H](Cc1ccccc1)C(=O)N[C@@H](CCCNC(=N)N)C(=O)N1Cc2ccccc2C[C@H]1C(=O)N[C@@H](CCCNC(=N)N)C(=O)N[C@@H](CC(N)=O)C(=O)NCCCCCC(=O)N[C@@H](CS)C(N)=O the Emax was 97.8 ± 11.8% (NMUR2; calcium signalling, agonist; HEK293 expressing receptor; 10 µM; relative to: human NmU).
For Cc1ccc(C)c2sc(NC(=O)C3CCN(S(=O)(=O)c4ccc(F)cc4)CC3)nc12, the Emax was > 2 fold (Napepld; enzyme activity, activator, fluorescence, PED-A1 substrate; relative to: vehicle).
With Cn1ccc2c(N3CCN(CCCCOc4ccc5c(c4)NC(=O)CC5)CC3)cccc21 the Emax was 36% (DRD2 (Homo sapiens, UniProt P14416); β-arrestin recruitment, agonist).
The Emax of COc1ccc(-c2cc(C(F)(F)F)nc(S(=O)(=O)CCCC(=O)Nc3ccc(F)c(Cl)c3)n2)cc1OC is reported as 58 ± 34% (GLP1R; cAMP accumulation, positive allosteric modulator; HEK-293T overexpressing GLP1R; added: EC20 GLP-1).
With CCCCCCCCCCCCCCCCSCc1cc2cc(c1)CSC[C@H](N)C(=O)NCCCCCC(=O)N[C@@H](Cc1ccccc1)C(=O)N[C@@H](CC(C)C)C(=O)N[C@@H](Cc1ccccc1)C(=O)N[C@@H](CCCNC(=N)N)C(=O)N1Cc3ccccc3C[C@H]1C(=O)N[C@@H](CCCNC(=N)N)C(=O)N[C@@H](CC(N)=O)C(=O)NCCCCCC(=O)N[C@H](C(N)=O)CSC2 the Emax was 127 ± 10.8% (NMUR2; calcium signalling, agonist; HEK293 expressing receptor; 10 µM; relative to: human NmU).
For COc1ccc(-c2cc(C(F)(F)F)nc(S(=O)(=O)CCCC(=O)Nc3ccc(F)cc3F)n2)cc1OC, the Emax was 49 ± 21% (GLP1R; cAMP accumulation, positive allosteric modulator; HEK-293T overexpressing GLP1R; added: EC20 GLP-1).
The Emax of CCCCCCCCCCCCCCCC(=O)NCCOCCOCCOCCOCCOCCOCCOCCOCCOCCOCCOCCOCCC(=O)NC(C)(C)C(=O)N[C@@H](Cc1ccccc1)C(=O)N[C@@H](CC(C)C)C(=O)N[C@@H](Cc1ccccc1)C(=O)N[C@@H](CCCNC(=N)N)C(=O)N1CCC[C@H]1C(=O)N[C@@H](CCCNC(=N)N)C(=O)N[C@@H](CC(N)=O)C(N)=O is reported as 92.8 ± 2.2% (NMUR2; calcium signalling; HEK293; relative to: human neuromedin U).
CC[C@H](C)[C@H](NC(=O)[C@@H]1CCCN1C(=O)[C@H](Cc1c[nH]cn1)NC(=O)[C@@H](NC(=O)[C@@H](NC(=O)[C@@H](NC(=O)[C@H](CCCNC(=N)N)NC(=O)CNC)C(C)C)[C@@H](C)CC)[C@@H](C)CC)C(=O)O has an Emax of 42% (AGTR1; β-arrestin recruitment, agonist; CHO).
With N=C(N)NCCC[C@@H]1NC(=O)[C@H](CCCCNC(=O)CNC(=O)CNC(=O)CNC(=O)CC[C@H](NC(=O)CNC(=O)CNC(=O)CNC(=O)CC[C@H](NC(=O)CN2CCN(CC(=O)O)CCN(CC(=O)O)CCN(CC(=O)O)CC2)C(=O)NCC(=O)NCC(=O)NCC(=O)N[C@@H](CCC(=O)NCC(=O)NCC(=O)NCC(=O)NCCCC[C@@H]2NC(=O)[C@@H](Cc3ccccc3)NC(=O)[C@H](CC(=O)O)NC(=O)CNC(=O)[C@H](CCCNC(=N)N)NC2=O)C(=O)NCC(=O)NCC(=O)NCC(=O)NCCCC[C@@H]2NC(=O)[C@@H](Cc3ccccc3)NC(=O)[C@H](CC(=O)O)NC(=O)CNC(=O)[C@H](CCCNC(=N)N)NC2=O)C(=O)NCC(=O)NCC(=O)NCC(=O)NCCCC[C@@H]2NC(=O)[C@@H](Cc3ccccc3)NC(=O)[C@H](CC(=O)O)NC(=O)CNC(=O)[C@H](CCCNC(=N)N)NC2=O)NC(=O)[C@@H](Cc2ccccc2)NC(=O)[C@H](CC(=O)O)NC(=O)CNC1=O [indium-111 labelled] the tissue uptake was 0.03 ± 0.01 %ID/g (female athymic nu/nu mice, blood; intravenous, 72 h).
CN1CCN(CC(=O)N2N=C3/C(=C/c4ccccc4)CCCC3C2c2ccccc2)CC1 (mixture of isomers) has an Emax of 190% (ALOX15 (Homo sapiens, UniProt P16050); enzyme activity, activator).
COc1ccc(-c2cc(C(F)(F)F)nc(S(=O)(=O)CCCC(=O)Nc3ccccc3F)n2)cc1OC gave an Emax of 61 ± 27% (GLP1R; cAMP accumulation, positive allosteric modulator; HEK-293T overexpressing GLP1R; added: EC20 GLP-1).
The Emax of CNCC(=O)N[C@@H](CCCNC(=N)N)C(=O)N[C@H](C(=O)N[C@@H](Cc1ccc(O)cc1)C(=O)N[C@@H](CCSC)C(=O)N[C@@H](Cc1c[nH]cn1)C(=O)N1CCC[C@H]1C(=O)N[C@@H](CC(C)C)C(=O)O)C(C)C is reported as 76% (AGTR1; β-arrestin recruitment, agonist; CHO).
The Emax of COc1cc(Cl)ccc1NC(=O)CCCS(=O)(=O)c1nc(-c2ccc(OC)c(OC)c2)cc(C(F)(F)F)n1 is reported as 36% (GLP1R; cAMP, agonist).
CC[C@H](C)[C@H](NC(=O)[C@H](CO)NC(=O)[C@H](Cc1ccc(O)cc1)NC(=O)[C@H](CC(=O)O)NC(=O)[C@H](CO)NC(=O)[C@@H](NC(=O)[C@H](Cc1ccccc1)NC(=O)[C@@H](NC(=O)CNC(=O)[C@H](CCC(=O)O)NC(=O)[C@H](C)NC(=O)[C@@H](N)Cc1ccc(O)cc1)[C@@H](C)O)[C@@H](C)CC)C(=O)N[C@@H](C)C(=O)N[C@@H](CCSC)C(=O)N[C@@H](CC(=O)O)C(=O)N[C@@H](CCCCN)C(=O)N[C@H](C(=O)N[C@@H](CCCNC(=N)N)C(=O)N[C@@H](CCC(N)=O)C(=O)N[C@@H](CCC(N)=O)C(=O)N[C@@H](CC(=O)O)C(=O)N[C@@H](Cc1ccccc1)C(=O)N[C@H](C(=O)N[C@@H](CC(N)=O)C(=O)N[C@@H](Cc1c[nH]c2ccccc12)C(=O)N[C@@H](CC(C)C)C(=O)N[C@@H](CC(C)C)C(=O)N[C@@H](C)C(=O)N[C@@H](CCC(N)=O)C(=O)N[C@@H](CCCCN)C(=O)NCC(=O)N[C@@H](CCCCN)C(=O)N[C@@H](CCCCN)C(=O)N[C@@H](CC(N)=O)C(=O)N[C@@H](CC(=O)O)C(=O)N[C@@H](Cc1c[nH]c2ccccc12)C(=O)N[C@@H](CCCCN)C(=O)N[C@@H](Cc1c[nH]cn1)C(=O)N[C@@H](CC(N)=O)C(=O)N[C@@H](CC(C)C)C(=O)N[C@H](C(=O)N[C@@H](CCC(N)=O)C(=O)O)[C@@H](C)O)C(C)C)[C@@H](C)CC has an Emax of 113% (GIPR; cAMP, agonist; COS-7).
With COc1ccccc1-c1cc(C(F)(F)F)nc(S(=O)(=O)CCCC(=O)Nc2ccc(F)cc2F)n1 the Emax was 48% (GLP1R; cAMP, agonist).
Cc1cc(Br)cnc1OCCCNc1n[s+]([O-])nc1NCc1ccc[n+]([O-])c1 (stereo not drawn) gave an Emax of 99 ± 3% (GPR132 (Homo sapiens, UniProt Q9UNW8); agonist).
COc1ccc(-c2cc(C(F)(F)F)nc(NCc3ccc(F)cc3)n2)cc1OC gave an Emax of 53 ± 16% (GLP1R; cAMP accumulation, positive allosteric modulator; HEK-293T overexpressing GLP1R; added: EC20 GLP-1).
With COc1ccc(F)cc1CC1(NC(=O)c2cc(N3C[C@@H](C)O[C@H](C)C3)ccn2)CC1 the Emax was 2.2 fold (SLC6A8 (Homo sapiens, UniProt P48029, P544L); creatine transport, item: P544L; U-2 OS; 24 h; relative to: DMSO).
For COc1ccc(-c2cc(C(F)(F)F)nc(NCc3cccnc3)n2)cc1OC, the Emax was 35 ± 0.8% (GLP1R; cAMP accumulation, positive allosteric modulator; HEK-293T overexpressing GLP1R; added: EC20 GLP-1).
Cc1cc(C)c2sc(NC(=O)C3CCN(S(=O)(=O)c4ccc(F)cc4)CC3)nc2c1 gave an Emax of 1.6 fold (Napepld; enzyme activity, activator; RAW264.7; added: PED-A1 substrate; relative to: vehicle).
With COc1cccc(-c2cc(C(F)(F)F)nc(NCc3ccccc3)n2)c1 the Emax was 32 ± 10% (GLP1R; cAMP accumulation, positive allosteric modulator; HEK-293T overexpressing GLP1R; added: EC20 GLP-1).
CCCCCCCCCCCCCCCC(=O)NCCOCCOCCOCCOCCOCCOCCOCCOCCOCCOCCOCCOCCC(=O)NC(C)(C)C(=O)N[C@@H](Cc1ccccc1)C(=O)N[C@@H](CC(C)C)C(=O)N[C@@H](Cc1ccccc1)C(=O)N[C@@H](CCCNC(=N)N)C(=O)N1CCC[C@H]1C(=O)N[C@@H](CCCNC(=N)N)C(=O)N[C@@H](CC(N)=O)C(=O)NC(C)(C)C(N)=O has an Emax of 66.5 ± 0.1% (NMUR2; calcium signalling; HEK293; relative to: human neuromedin U).

Excerpt of the above:
Cc1cc(C)c2sc(NC(=O)C3CCN(S(=O)(=O)c4ccc(F)cc4)CC3)nc2c1 gave an Emax of 1.6 fold (Napepld; enzyme activity, activator; RAW264.7; added: PED-A1 substrate; relative to: vehicle).
With COc1ccccc1-c1cc(C(F)(F)F)nc(S(=O)(=O)CCCC(=O)Nc2ccc(F)cc2F)n1 the Emax was 48% (GLP1R; cAMP, agonist).
With CCCCCSC[C@H](NC(=O)[C@H](Cc1ccc(O)cc1)NC(=O)[C@@H](NC(=O)[C@H](CCCNC(=N)N)NC(=O)CNC)C(C)C)C(=O)N[C@@H](Cc1c[nH]cn1)C(=O)N1CCC[C@H]1C(=O)N[C@@H](CC(C)C)C(=O)O the Emax was 80% (AGTR1; β-arrestin recruitment, agonist; CHO).
Cc1cc(Br)cnc1OCCCNc1n[s+]([O-])nc1NCc1ccc[n+]([O-])c1 (stereo not drawn) gave an Emax of 99 ± 3% (GPR132 (Homo sapiens, UniProt Q9UNW8); agonist).
